Assay results pooled from the literature.
Compare with care: the assays were run in different laboratories.
Mode: inhibitor
Tested at: 10 µM
MAOB: Amine oxidase [flavin-containing] B (MAOB, Homo sapiens, UniProt P27338)
Chain of UniProt P27338 (whole entry, looked up): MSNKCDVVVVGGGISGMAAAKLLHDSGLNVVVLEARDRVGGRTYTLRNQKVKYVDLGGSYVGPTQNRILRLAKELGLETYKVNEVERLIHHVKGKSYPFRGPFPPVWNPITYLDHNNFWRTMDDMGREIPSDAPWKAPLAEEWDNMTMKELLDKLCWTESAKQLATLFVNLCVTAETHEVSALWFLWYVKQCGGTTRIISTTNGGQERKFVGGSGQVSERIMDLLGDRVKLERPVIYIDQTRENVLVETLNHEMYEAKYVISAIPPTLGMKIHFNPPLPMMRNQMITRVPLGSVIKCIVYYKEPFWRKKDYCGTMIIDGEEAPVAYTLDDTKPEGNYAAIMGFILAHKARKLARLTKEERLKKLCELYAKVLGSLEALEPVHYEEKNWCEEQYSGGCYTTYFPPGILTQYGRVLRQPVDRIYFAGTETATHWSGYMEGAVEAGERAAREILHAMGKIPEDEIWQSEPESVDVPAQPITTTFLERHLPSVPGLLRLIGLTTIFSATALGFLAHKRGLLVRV
ENPP2: Autotaxin (ENPP2, Homo sapiens, UniProt Q13822)
BACE1: Beta-secretase 1 (BACE1, Homo sapiens, UniProt P56817)
Chain of UniProt P56817 (whole entry, looked up): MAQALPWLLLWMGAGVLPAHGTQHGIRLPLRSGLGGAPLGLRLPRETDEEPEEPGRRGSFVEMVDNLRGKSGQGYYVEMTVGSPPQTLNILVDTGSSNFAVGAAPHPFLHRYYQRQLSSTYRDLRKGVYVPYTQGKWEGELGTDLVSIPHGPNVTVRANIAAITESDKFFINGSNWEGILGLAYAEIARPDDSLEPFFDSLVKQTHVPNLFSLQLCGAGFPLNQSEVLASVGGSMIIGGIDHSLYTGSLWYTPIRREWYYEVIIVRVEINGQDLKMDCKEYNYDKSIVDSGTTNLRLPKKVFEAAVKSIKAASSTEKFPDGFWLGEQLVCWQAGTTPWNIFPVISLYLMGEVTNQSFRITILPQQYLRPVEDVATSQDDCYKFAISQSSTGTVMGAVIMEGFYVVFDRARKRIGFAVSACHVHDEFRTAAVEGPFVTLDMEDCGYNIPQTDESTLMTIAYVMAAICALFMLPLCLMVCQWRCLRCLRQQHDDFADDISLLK

SMILES | target | effect on | method | time | together with | reference | remaining activity [%]
NC(=O)N/N=C/c1ccccc1OCc1ccccc1 | MAOB | enzyme activity | absorbance |  |  |  | 92
CCCCCCCCCCCCCCCc1ccc(C(Cl)P(=O)(O)O)cc1 (racemic) | ENPP2 |  |  | 2 h | FS-3 1 µM | control | 118
O=C(/C=C/c1ccc(Br)cc1)c1ccc(N2CCNCC2)cc1 | BACE1 | enzyme activity | fluorescence |  |  |  | 105
CCCCCCCCCCCCCCCc1ccc(C(O)P(=O)(O)O)cc1 (racemic) | ENPP2 |  |  | 2 h | FS-3 1 µM | control | 9.2
O=C(/C=C/c1cccc(Br)c1)c1cc2ccccc2oc1=O | BACE1 | enzyme activity | fluorescence |  |  |  | 92.8
CCCCCCCCCCCCCCCc1ccc(C(Br)P(=O)(O)O)cc1 (racemic) | ENPP2 |  |  | 2 h | FS-3 1 µM | control | 60.1
COc1ccc(/C=C/C(=O)c2ccc(N3CCNCC3)cc2)cc1 | BACE1 | enzyme activity | fluorescence |  |  |  | 28.9
O=C(/C=C/c1cccc(F)c1)c1cc2ccccc2oc1=O | BACE1 | enzyme activity | fluorescence |  |  |  | 80.8
NC(=S)N/N=C/c1ccc(OCc2ccccc2)cc1 | MAOB | enzyme activity | absorbance |  |  |  | 0.91
O=C(/C=C/c1cccc(Cl)c1)c1cc2ccccc2oc1=O | BACE1 | enzyme activity | fluorescence |  |  |  | 91
O=C(/C=C/c1ccc(C(F)(F)F)cc1)c1ccc(N2CCNCC2)cc1 | BACE1 | enzyme activity | fluorescence |  |  |  | 52.2

Repeated from above:
SMILES | target | effect on | method | time | together with | reference | remaining activity [%]
O=C(/C=C/c1cccc(Cl)c1)c1cc2ccccc2oc1=O | BACE1 | enzyme activity | fluorescence |  |  |  | 91
